Results pooled from the literature.
Numbered parts are unrelated; each lists some results of a single study. Substitutions count along the parent as printed.

Set 1 — method: RNA Bind-n-Seq; form: RNA; matrix: in vitro; concentration: not given; reference: input RNA pool; reading: higher = stronger binding
Target: RING finger protein unkempt homolog, zinc fingers 1-6, GST-SBP tag (UNK, Homo sapiens, UniProt Q9C0B0, residues 30-357)
Notes: RNA with constant flanks, human-mouse chimeric sites, ends assumed
Constant ends, left off below: GGGAGUUCUACAGUCCGACGAUC … CAACAGAGGAUUGAGCAUCA
Target sequence (chain): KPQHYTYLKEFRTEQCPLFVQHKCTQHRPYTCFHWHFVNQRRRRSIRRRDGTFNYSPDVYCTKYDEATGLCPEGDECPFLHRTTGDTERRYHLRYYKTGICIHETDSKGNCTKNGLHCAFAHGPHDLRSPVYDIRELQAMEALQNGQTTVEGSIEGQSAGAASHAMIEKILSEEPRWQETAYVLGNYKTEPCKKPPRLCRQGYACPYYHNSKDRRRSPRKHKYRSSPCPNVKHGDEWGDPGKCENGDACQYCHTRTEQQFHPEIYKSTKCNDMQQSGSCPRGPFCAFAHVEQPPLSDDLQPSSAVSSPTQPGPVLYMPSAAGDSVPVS
Sequence | bound/input enrichment [ratio]
UGUAGUUGAUCCCCUGCUCAUUUUUCUCUUUUCUUUCUUUCCUUUAGGAAAAGCCUAAAGAUUAGGUUGUAAGAAAAACAGAAGCCAUGUUUCGAAGACCUGUGUUAAUUACAGGUAGUC | 0.0658
GUGCCCUUCUCGCUGCUGCGGAGCCCGCCCAGCUGGGCAUUCCGGGACUGGUACCCUGCACACAGCCGCCUCUUCGAUCAAGCUUUCGGGGUGCCCCGGUUGCCCGAUGAGUGGUCGCAG | 0.0639
GGCCUGGGACCGUCCUGGGCUAGUACAAAUAGCGGCAGUGGAGGCUCGAGAGGAAAGUUUGUUAGUGAGGCAGUGGUAGAGGUCGUCCAUGUACGGUCCUUUACUCGAUAGAUGUGUUCU | 0.853
GAUAAGAAAAACUUGUUGGAGACCCGCUUGCAUGUCACUGGUAGAGACCUGAGGUGUCAAAUAGCUGAAACUUUCGGAUUUCAAGAAAAUUACAUCAAGAUCGUAAUAAAUAAGAAACAG | 0.29
UAAGUUAUUUUGUACAGCUUUGUAAAUUCUUAACAUUAAUUUGUAAACAUGUUUAUUUUGUUUGGGUAAUUUGGUUCAUUAAGUACAUAGCUAAGGUAAUGAACAUCGUAAUUAUAGAUU | 0.546
GGACAUCUUGUCAGGAUUUAUGUUCCUGUGAAACAAGUGAACACUCUGAUACACUUCAUCUGCUUGUACAUCUGUAUGAUAGAGAAAUGUAAAUAUGUUAAUCCAAGCAAUGUGUCACUU | 0.183
UAACCACAUCAAGAUGGUUGGAAAGCUGAAGCAGAACUUACUAUUGGCGUGUCUGGUGAUUAGUUCUGUGACCGUGUUUUACCUGGGCCAGCAUGCCAUGGAGUGCCAUCACCGAAUAGA | 0.19
UCGGAUGCUGUGCUGGGUCACUUUUCAUAUCCUGAUCCUUCACAGUGGACAGAUGAAGAACUGGGAAUCCCUCCUGAUGACGAGGACUGAAGGUGUAAACUCUCUGGACGAGUAGGAGCA | 0.477
UCAUUUUUCUCUUUUCUUUCUUUCCUUAAAAGCCUAACUAAAGAUUAGGUUGUAAGAAAAACAGAAGCCAUGUUUCGAAGACCUGUAUUACAGGUAUUUCGUCAGUUUGUAAGACAUGAG | 0.151
AAUUUCCGCAACUGUUUUUUAGACAUUCACAUCAGACUUACAGAGCACCUGGCCACAUUCUAGGUUUGUGUUAUUUCUCAGCUAUGGAUAUGAUCAAAUGAGAACACUGGCAGCCAGAUG | 0.94
UUCAAAGAAAAGGGCAGCUGUGUCAUUUCAUAAGUAACUCUGGGGGAGGGAAAUUCUGUUCUUUUGUUUAAUUUUCCCCCAAAUGAAACCAACAUGCGUGUUGAAGAACUGAGAAAAAAU | 0.103

Set 2 — method: DHFR PCA, deep sequencing; matrix: yeast; with: (+)-ABA 2500 µM; reference: wild-type fitted maximum; reading: higher = stronger binding
Target: ABI1, truncated, D143A, DHFR fusion (Arabidopsis thaliana)
Notes: methotrexate growth selection, single substitutions
Starting sequence: PYL1, truncated, DHFR fusion (Arabidopsis thaliana); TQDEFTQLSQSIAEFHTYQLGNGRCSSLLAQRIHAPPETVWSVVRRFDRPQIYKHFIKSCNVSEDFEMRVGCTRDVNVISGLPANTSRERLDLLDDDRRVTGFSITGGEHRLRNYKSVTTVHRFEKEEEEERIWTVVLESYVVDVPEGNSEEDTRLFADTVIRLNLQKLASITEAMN; partner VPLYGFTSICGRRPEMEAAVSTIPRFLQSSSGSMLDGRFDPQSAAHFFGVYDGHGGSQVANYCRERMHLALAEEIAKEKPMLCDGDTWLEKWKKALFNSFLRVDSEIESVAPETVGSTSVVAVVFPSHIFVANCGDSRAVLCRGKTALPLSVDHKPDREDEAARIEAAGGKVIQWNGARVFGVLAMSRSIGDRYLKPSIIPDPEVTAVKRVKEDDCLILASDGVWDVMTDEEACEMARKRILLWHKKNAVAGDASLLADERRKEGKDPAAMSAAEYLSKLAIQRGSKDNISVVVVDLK
Change | relative binding score
V142S | 96.7%
A170T | 91.9%
E127I | 92%
F124K | 93.3%
R113W | 94.1%
P50L | -5.62%
L8V | 97%
Q2H | 97.7%
H55N | 97.1%
F157R | 3.14%
L91E | 5.94%
D92G | 80.5%
E109H | 100%
L94S | 91.7%
R74G | -4.28%
G108V | 60.1%
K54A | 13.7%

Set 3 — target: CCNB2, cyclin fold, Cln2 fusion (human); method: yeast growth competition, sequencing; matrix: yeast; notes: weak parent motif; reference: not given; reading: higher = stronger binding
Starting sequence: SLBP docking peptide (human); ARYKRKLLINDFG
Change | normalised enrichment score
G13S | 0.145
R2G | 0.763
F12D | 0.354
K6L | 1.02
L7H | 0.426
A1R | 0.203
Y3W | 0.533
K4P | -0.159
I9P | 0.75
L8Y | 0.726
N10P | 0.729
D11P | 0.897
N10W | 0.995
D11R | 0.531
K6V | 0.609
A1F | 0.199
K4L | 0.924
K6E | 0.415
K4F | 0.88
G13A | 0.51

Set 4 — method: protein-binding microarray; form: double-stranded DNA, one strand shown; matrix: in vitro; concentration: 250 nM; notes: 60-bp whole probe; with: salmon DNA 0.4 mg/ml; reference: random background probes; reading: higher = stronger binding; constant ends, left off below: GCCTAGCAC … GTCTTGATTCGCTTGACGCTGCTG
Target: Interferon regulatory factor 5, full length, phosphomimetic (IRF5, Homo sapiens, UniProt Q13568-2, residues 1-514, K96S/S451D/S453D/S456D/S462D)
Sequence | log fluorescence
TCATTTGTCCCTATTTAACTGTGCTAG | 0.785 z-score
TCATGTTTGTCCCTATTACTGTGCTAG | 0.692 z-score
GACGCTCTCAGACTGGAGACGTGCTAG | -0.459 z-score
GACGGTCTCCTACTGCCGACGTGCTAG | -0.362 z-score
TCAACTTTCTACTTCTCACTGTGCTAG | 2.84 z-score
ATGGAAATGCACCCCACGCTGTGCTAG | -0.444 z-score
TTAGGACTGCTTTTTCTTTAGTGCTAG | 0.495 z-score
CTTTAACTCATTTTCATTTTGTGCTAG | 2.55 z-score
TCAGTTGTAGTTTTCATACTGTGCTAG | 1.02 z-score
AGACAAGCATTTGGTGATGCGTGCTAG | -0.488 z-score
GACGGTTTCCTATTGCTGACGTGCTAG | 0.668 z-score
GACCATATCAGTCTCGAGACGTGCTAG | 0.634 z-score
GACGATCTCAGTCTTGAGACGTGCTAG | -0.257 z-score
TCAGTTTCTATTTTCTGACTGTGCTAG | 5.85 z-score
TCACATGTGCTGTCTCAGACTGTGCTA | -0.176 z-score
GACGGTATCGACGTTCGGGACGTGCTA | 1.51 z-score
TCATCTTTATGCACTCTCACTGTGCTA | 0.449 z-score
ACTAGTTTCCATTTTCAGAAGTGCTAG | 2.95 z-score
CTTTCTCCCAAGTCTTGTTTTGTGCTA | 1.83 z-score
TTAGAATTCAGTATCGATTAGTGCTAG | 8.03 z-score
ATTCCTCTCACCTCGGCCTCGTGCTAG | 0.422 z-score
GACGGTTTGGACACTGGGGACGTGCTA | -0.269 z-score
GACGATCTCAGACTGGACACGTGCTAG | -0.347 z-score
AGCAAGCCCCTTCCTTTCGGGTGCTAG | 2.27 z-score
AACGGTTCCCTTTTCCTGACGTGCTAG | 0.282 z-score

Set 5 — method: protein binding microarray; form: double-stranded DNA, one strand shown; matrix: in vitro; concentration: not given; reference: not given; reading: higher = stronger binding
Target: Histone acetyltransferase KAT6A, winged helix 2, GST fusion (KAT6A, Homo sapiens, UniProt Q92794, residues 85-181)
Notes: 8-mer, flanks averaged, mean of 2 arrays, mostly near background
Construct (chain): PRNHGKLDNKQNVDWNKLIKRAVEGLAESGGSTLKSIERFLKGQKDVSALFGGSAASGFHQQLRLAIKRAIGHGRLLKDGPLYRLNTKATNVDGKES
Sequence | E-score
GCGCGGCA | 0.265
AATAGCAA | 0.117
ATGTATTC | -0.052
AATACGTA | -0.155
CCTACCTA | -0.18
GAAGGAGC | -0.156
ACTCTGTC | 0.0322
AACTAACG | 0.00739
ACCAGGGG | 0.157
AACCTATA | -0.0941
GATAACAA | 0.144
TAAATCCA | 0.00671
GAGCATCC | 0.103
GTGTCAAA | 0.0894
ACCCCTCA | -0.0825
ACTAGAGG | -0.0555
ATTCGTTC | 0.078
AGCTGGGG | -0.014
AAAACCGG | 0.09
CGAACTAA | 0.111
AATGCAGC | -0.047
ACTAATCT | -0.0885
AAGGCAGT | -0.00995
ATAGTAAG | -0.0454
CAGTCGAC | 0.166

Further values, each from its own experiment
Molecule | target | test | test system | setting | how to read | measurement | result
PhoQ, residues 284 288 289 292 302 303 TASMAF | PhoP, residues 12 14 15 18 19 QYCSL (Escherichia coli, UniProt P23836) | Sort-seq, measured: YFP reporter | E. coli | PhoQ-PhoP variant library, with: 10 µM Mg2+ | reference: high Mg2+ state, higher = stronger signaling | fold induction | 10.4

Some of these lines once more (set 3):
Change | normalised enrichment score
R2G | 0.763
F12D | 0.354
K6L | 1.02
L7H | 0.426
A1R | 0.203
Y3W | 0.533
K4P | -0.159
I9P | 0.75
L8Y | 0.726
N10P | 0.729
D11P | 0.897
N10W | 0.995
D11R | 0.531
K6V | 0.609
A1F | 0.199
K4L | 0.924
